Published values pooled from the literature.
Parts stem from different laboratories: compare values within a part only. ± marks the error that the study gave.
Sequence of UniProt P21127 (whole entry, looked up): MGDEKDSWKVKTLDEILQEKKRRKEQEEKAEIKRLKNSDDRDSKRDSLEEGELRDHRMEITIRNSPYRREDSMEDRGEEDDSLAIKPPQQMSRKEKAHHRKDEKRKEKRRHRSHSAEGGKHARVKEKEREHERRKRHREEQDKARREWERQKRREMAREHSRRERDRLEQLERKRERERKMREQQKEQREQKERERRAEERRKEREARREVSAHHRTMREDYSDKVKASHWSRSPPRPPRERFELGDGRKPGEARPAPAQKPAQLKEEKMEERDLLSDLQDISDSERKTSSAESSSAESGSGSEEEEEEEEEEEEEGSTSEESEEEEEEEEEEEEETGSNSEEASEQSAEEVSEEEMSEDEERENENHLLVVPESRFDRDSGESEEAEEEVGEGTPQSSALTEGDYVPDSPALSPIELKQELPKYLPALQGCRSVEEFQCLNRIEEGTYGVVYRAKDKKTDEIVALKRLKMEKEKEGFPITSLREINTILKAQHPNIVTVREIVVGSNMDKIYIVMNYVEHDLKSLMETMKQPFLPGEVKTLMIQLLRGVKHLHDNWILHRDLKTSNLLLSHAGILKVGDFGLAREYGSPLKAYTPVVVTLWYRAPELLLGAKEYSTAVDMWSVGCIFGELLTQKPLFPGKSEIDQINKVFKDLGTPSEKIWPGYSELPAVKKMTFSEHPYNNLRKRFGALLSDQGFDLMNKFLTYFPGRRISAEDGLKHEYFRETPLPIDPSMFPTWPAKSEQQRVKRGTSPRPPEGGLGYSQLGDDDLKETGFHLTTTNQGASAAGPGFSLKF
Sequence of UniProt Q96J92 (whole entry, looked up): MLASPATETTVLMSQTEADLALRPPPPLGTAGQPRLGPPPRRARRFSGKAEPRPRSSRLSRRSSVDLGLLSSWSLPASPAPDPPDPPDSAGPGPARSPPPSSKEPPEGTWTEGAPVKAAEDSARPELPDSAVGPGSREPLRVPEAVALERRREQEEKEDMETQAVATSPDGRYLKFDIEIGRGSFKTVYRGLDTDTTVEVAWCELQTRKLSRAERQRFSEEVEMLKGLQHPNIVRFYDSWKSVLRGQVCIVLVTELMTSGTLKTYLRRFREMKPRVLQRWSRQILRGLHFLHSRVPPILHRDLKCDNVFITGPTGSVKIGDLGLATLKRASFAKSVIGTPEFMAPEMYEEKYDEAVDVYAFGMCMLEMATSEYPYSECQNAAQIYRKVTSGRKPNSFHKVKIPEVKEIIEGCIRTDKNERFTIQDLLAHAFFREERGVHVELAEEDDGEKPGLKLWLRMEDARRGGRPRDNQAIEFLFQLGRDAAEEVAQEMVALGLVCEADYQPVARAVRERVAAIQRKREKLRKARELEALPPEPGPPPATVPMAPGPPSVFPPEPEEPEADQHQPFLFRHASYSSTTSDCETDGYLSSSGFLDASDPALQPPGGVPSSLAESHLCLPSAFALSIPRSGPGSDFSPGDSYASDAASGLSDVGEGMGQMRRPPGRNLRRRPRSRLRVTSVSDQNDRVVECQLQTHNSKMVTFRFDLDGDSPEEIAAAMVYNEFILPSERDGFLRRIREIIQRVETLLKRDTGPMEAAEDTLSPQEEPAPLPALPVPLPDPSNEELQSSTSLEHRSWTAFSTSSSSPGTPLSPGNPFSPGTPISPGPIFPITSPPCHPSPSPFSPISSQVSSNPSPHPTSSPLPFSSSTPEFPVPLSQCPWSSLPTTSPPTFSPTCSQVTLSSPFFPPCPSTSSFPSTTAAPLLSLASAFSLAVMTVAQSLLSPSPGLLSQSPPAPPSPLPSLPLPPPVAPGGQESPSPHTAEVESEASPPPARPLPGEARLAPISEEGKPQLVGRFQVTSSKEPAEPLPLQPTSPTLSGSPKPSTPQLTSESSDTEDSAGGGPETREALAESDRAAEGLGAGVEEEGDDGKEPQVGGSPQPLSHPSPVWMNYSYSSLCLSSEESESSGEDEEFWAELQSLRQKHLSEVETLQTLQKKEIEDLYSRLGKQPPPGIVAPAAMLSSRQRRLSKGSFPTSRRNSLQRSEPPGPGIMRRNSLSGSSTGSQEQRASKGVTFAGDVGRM
Sequence of UniProt P51812 (whole entry, looked up): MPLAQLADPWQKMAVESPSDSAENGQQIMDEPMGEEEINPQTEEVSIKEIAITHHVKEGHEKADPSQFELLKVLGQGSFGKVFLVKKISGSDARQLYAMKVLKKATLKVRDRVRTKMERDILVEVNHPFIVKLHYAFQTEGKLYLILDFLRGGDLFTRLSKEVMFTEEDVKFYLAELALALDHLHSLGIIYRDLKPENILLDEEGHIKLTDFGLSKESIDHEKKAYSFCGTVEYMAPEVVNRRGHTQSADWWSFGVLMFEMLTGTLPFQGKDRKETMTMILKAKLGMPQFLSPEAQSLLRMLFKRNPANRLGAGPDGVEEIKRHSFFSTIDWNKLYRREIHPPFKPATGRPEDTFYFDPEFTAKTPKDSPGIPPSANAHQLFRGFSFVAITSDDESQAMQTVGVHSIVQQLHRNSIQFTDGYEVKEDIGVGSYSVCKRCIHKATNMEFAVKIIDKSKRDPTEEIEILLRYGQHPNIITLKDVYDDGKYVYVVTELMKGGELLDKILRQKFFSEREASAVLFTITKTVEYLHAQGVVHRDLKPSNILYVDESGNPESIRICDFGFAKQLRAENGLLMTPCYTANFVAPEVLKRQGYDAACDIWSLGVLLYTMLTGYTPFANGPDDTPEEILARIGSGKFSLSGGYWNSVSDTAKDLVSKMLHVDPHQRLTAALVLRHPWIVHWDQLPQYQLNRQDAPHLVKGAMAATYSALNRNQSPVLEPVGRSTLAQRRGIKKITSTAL

Block 1
SMILES: C[C@@H]1CN(c2ccc(-c3cc(C(=O)NCCOCCOCCOCCOCCOCCOCCNC(=O)/C=C/c4[nH]cc(C(=O)N[C@@H](CC(N)=O)c5ccc(F)c(Cl)c5)c4-c4ccc(Cl)cc4F)ccc3F)cc2NC(=O)c2ccc(F)cc2C(F)(F)F)C[C@H](C)N1C
Effect on: thermal unfolding
Method: differential scanning fluorimetry
Concentration: 5.5 µM
Reading: higher = more unfolded
WDR5: WD repeat-containing protein 5 (WDR5, Homo sapiens, UniProt P61964)
DCAF1: DDB1- and CUL4-associated factor 1 (DCAF1, Homo sapiens, UniProt Q9Y4B6)
Sequence of UniProt Q9Y4B6 (whole entry, looked up): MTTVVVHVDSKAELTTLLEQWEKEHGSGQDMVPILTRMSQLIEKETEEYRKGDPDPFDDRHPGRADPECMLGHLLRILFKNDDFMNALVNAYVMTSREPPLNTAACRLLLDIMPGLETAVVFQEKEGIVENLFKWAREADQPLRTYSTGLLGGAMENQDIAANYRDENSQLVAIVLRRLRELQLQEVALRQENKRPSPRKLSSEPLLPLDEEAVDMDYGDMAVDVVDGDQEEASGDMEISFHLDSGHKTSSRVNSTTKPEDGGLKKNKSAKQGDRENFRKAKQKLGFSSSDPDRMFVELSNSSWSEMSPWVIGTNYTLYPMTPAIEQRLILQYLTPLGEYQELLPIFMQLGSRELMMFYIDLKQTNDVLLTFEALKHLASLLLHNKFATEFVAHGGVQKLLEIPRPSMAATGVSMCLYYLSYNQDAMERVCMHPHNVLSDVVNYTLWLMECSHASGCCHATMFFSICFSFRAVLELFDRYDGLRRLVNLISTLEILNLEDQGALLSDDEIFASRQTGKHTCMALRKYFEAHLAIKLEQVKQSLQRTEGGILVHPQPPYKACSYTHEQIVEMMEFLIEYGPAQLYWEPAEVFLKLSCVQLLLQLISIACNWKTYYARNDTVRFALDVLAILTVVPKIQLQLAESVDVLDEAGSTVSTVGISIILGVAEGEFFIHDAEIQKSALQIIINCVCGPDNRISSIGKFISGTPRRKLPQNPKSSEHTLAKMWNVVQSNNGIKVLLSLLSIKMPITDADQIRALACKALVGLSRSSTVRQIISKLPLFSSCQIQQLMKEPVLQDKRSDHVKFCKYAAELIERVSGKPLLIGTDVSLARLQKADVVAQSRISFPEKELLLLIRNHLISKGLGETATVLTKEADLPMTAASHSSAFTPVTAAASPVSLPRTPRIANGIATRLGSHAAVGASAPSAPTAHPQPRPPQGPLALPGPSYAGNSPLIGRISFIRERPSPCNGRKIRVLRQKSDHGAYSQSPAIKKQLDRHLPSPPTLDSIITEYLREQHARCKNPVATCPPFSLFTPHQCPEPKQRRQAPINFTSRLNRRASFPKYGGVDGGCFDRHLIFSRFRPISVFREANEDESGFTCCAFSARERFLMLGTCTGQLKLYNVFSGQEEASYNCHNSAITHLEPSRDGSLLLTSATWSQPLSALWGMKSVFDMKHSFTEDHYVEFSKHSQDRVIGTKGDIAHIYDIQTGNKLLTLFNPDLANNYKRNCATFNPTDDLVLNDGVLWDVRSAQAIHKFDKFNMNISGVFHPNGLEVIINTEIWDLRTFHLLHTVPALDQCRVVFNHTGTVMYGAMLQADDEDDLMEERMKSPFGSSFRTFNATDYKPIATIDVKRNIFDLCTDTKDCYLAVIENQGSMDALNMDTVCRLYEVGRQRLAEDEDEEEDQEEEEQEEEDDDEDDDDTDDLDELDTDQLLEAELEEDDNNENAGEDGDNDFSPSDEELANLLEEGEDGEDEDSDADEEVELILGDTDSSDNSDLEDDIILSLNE
| target | temperature | SYPRO Orange fluorescence |
| --- | --- | --- |
| WDR5 | 31.2 °C | 13700 a.u. |
| DCAF1 | 58.01 °C | 38600 a.u. |
| DCAF1 | 68.81 °C | 49500 a.u. |
| WDR5 | 52.01 °C | 16700 a.u. |
| DCAF1 | 26.4 °C | 7450 a.u. |
| WDR5 | 52.81 °C | 16600 a.u. |
| DCAF1 | 61.81 °C | 52400 a.u. |
| WDR5 | 37.8 °C | 13800 a.u. |
| DCAF1 | 47.6 °C | 16300 a.u. |
| WDR5 | 38.6 °C | 13900 a.u. |
| WDR5 | 35.6 °C | 14000 a.u. |

Block 2
Compound: O=C(Nc1ccccc1)Nc1cccc(Oc2ccc3nccn3n2)c1
Concentration: 1 µM
| target | notes | remaining activity |
| --- | --- | --- |
| Cyclin-dependent kinase-like 1 (CDKL1, Homo sapiens, UniProt Q00532) |  | 88% |
| Ribosomal protein S6 kinase alpha-3 (RPS6KA3, Homo sapiens, UniProt P51812) | kinase domain 2 C-terminal | 68% |
| Phosphatidylinositol 5-phosphate 4-kinase type-2 beta (PIP4K2B, Homo sapiens, UniProt P78356) | PIP5K2B construct | 85% |
| RAC-alpha serine/threonine-protein kinase (AKT1, Homo sapiens, UniProt P31749) |  | 68% |
| Serine/threonine-protein kinase D2 (PRKD2, Homo sapiens, UniProt Q9BZL6) |  | 93% |
| Transient receptor potential cation channel subfamily M member 6 (TRPM6, Homo sapiens, UniProt Q9BX84) |  | 100% |
| cAMP-dependent protein kinase catalytic subunit PRKX (PRKX, Homo sapiens, UniProt P51817) |  | 100% |
| Serine/threonine-protein kinase PAK 3 (PAK3, Homo sapiens, UniProt O75914) |  | 100% |
| Cyclin-dependent kinase 11B (CDK11B, Homo sapiens, UniProt P21127) | CDC2L1 construct | 100% |
| Phosphorylase b kinase gamma catalytic chain, liver/testis isoform (PHKG2, Homo sapiens, UniProt P15735) |  | 91% |
| Serine/threonine-protein kinase haspin (HASPIN, Homo sapiens, UniProt Q8TF76) |  | 96% |
| Protein kinase C epsilon type (PRKCE, Homo sapiens, UniProt Q02156) |  | 100% |
| Serine/threonine-protein kinase Nek4 (NEK4, Homo sapiens, UniProt P51957) |  | 100% |
| Ribosomal protein S6 kinase alpha-5 (RPS6KA5, Homo sapiens, UniProt O75582) | kinase domain 1 N-terminal | 100% |
| Protein kinase C eta type (PRKCH, Homo sapiens, UniProt P24723) |  | 100% |

Block 3
Compound: CCC1(c2cccc(-c3cn(C)nc3C)c2)C2=C(Nc3n[nH]cc31)C(F)C(C)(C)CC2=O (single isomer, unassigned)
Concentration: 1 µM
| target | effect on | method | relative to | remaining binding [%] |
| --- | --- | --- | --- | --- |
| Serine/threonine-protein kinase WNK4 (WNK4, Homo sapiens, UniProt Q96J92) | kinase binding | KINOMEscan | DMSO control | 77 |
| LIM domain kinase 1 (LIMK1, Homo sapiens, UniProt P53667) | binding | competition with immobilised ligand |  | 100 |
| Mitogen-activated protein kinase kinase kinase 14 (MAP3K14, Homo sapiens, UniProt Q99558) | kinase binding | KINOMEscan | DMSO control | 100 |
| Casein kinase I isoform epsilon (CSNK1E, Homo sapiens, UniProt P49674) | binding | competition with immobilised ligand |  | 87 |
| Phosphatidylinositol 5-phosphate 4-kinase type-2 gamma (PIP4K2C, Homo sapiens, UniProt Q8TBX8) | kinase binding | KINOMEscan | DMSO control | 90 |
| Non-receptor tyrosine-protein kinase TYK2, JH2 (TYK2, Homo sapiens, UniProt P29597) | binding | competition with immobilised ligand |  | 47 |
| Serine/threonine-protein kinase Nek2 (NEK2, Homo sapiens, UniProt P51955) | binding | competition with immobilised ligand |  | 100 |
| Epidermal growth factor receptor (EGFR, Homo sapiens, UniProt P00533, del746-750) | binding | competition with immobilised ligand |  | 100 |
| Calcium/calmodulin-dependent protein kinase type 1D (CAMK1D, Homo sapiens, UniProt Q8IU85) | kinase binding | KINOMEscan | DMSO control | 100 |
| Tyrosine-protein kinase receptor Tie-1 (TIE1, Homo sapiens, UniProt P35590) | binding | competition with immobilised ligand |  | 100 |
| Serine/threonine-protein kinase MARK1 (MARK1, Homo sapiens, UniProt Q9P0L2) | kinase binding | KINOMEscan | DMSO control | 100 |

Block 4
Target: Sodium-dependent neutral amino acid transporter B(0)AT1 (SLC6A19, Homo sapiens, UniProt Q695T7)
Sequence of UniProt Q695T7 (whole entry, looked up): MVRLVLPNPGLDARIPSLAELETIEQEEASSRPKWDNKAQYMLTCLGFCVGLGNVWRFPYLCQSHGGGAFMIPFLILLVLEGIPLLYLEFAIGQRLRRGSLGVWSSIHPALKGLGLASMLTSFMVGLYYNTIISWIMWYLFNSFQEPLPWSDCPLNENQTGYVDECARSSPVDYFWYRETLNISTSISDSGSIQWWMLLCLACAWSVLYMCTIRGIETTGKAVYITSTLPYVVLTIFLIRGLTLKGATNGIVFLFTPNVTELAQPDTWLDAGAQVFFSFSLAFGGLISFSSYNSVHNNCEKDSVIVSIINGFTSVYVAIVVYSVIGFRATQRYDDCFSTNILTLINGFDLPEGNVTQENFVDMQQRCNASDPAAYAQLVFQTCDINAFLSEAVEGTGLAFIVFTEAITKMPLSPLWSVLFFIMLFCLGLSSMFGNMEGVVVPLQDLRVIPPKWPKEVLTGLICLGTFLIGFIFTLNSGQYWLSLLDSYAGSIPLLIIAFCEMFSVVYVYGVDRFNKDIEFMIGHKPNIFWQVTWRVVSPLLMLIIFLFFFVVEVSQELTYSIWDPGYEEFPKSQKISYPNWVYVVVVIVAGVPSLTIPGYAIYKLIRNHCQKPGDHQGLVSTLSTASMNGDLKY
Mode: inhibitor
Method: FLIPR membrane potential
Cell line: CHO-BC cells
Concentration: 30 µM
Notes: 30 µM cinromide as 0%
Added: 1.5 mM L-leucine
Relative to: uninhibited cells
| Structure (SMILES) | remaining activity [%] |
| --- | --- |
| Cc1cc(OC(C)C(=O)NC(C)C)cc(C)c1Cl (racemic) | 78 ± 9 |
| CNC(=O)COc1cc(C)c(Cl)c(C)c1 | 44 ± 6 |
| Cc1cc(OCC(=O)NC(C)(C)C)cc(C)c1Cl | 116 ± 4 |
| Cc1cc(OCC(=O)NCCCO)cc(C)c1Cl | 103 ± 10 |
| Cc1cc(OCC(=O)Nc2ccccc2)cc(C)c1Cl | 109 ± 6 |
| Cc1cc(OCC(=O)NCC(C)C)cc(C)c1Cl | 84 ± 11 |
| Cc1cc(NCC(=O)NC(C)C)cc(C)c1I | -3 ± 2 |
| Cc1cc(OCC(=O)CC(C)C)cc(C)c1Cl | 106 ± 13 |
| Cc1cc(OCC(=O)SC(C)C)cc(C)c1Cl | 131 ± 10 |
| CC(C)NC(=O)CSc1ccc(Cl)cc1 | 10 ± 4 |
| CC(C)NC(=O)COc1ccc2ccccc2c1 | 1 ± 0.3 |
| Cc1cc(OC(C)(C)C(=O)NC(C)C)cc(C)c1Cl | 127 ± 9 |
| CC(C)NC(=O)CSc1ccc([N+](=O)[O-])cc1 | 39 ± 11 |
| CC(C)NC(=O)COc1ccc(I)cc1 | 9 ± 2 |
| CCCNC(=O)COc1cc(C)c(Cl)c(C)c1 | 11 ± 2 |
| CC(C)NC(=O)COc1ccc(Br)cc1 | 21 ± 2 |
| Cc1cc(OCC(=O)NC(C)C)ccc1I | -3 ± 1 |

Some of these lines once more (block 2):
| target | notes | remaining activity |
| --- | --- | --- |
| Cyclin-dependent kinase-like 1 (CDKL1, Homo sapiens, UniProt Q00532) |  | 88% |
| Ribosomal protein S6 kinase alpha-3 (RPS6KA3, Homo sapiens, UniProt P51812) | kinase domain 2 C-terminal | 68% |
| Phosphatidylinositol 5-phosphate 4-kinase type-2 beta (PIP4K2B, Homo sapiens, UniProt P78356) | PIP5K2B construct | 85% |
| RAC-alpha serine/threonine-protein kinase (AKT1, Homo sapiens, UniProt P31749) |  | 68% |
| Serine/threonine-protein kinase D2 (PRKD2, Homo sapiens, UniProt Q9BZL6) |  | 93% |
| Transient receptor potential cation channel subfamily M member 6 (TRPM6, Homo sapiens, UniProt Q9BX84) |  | 100% |
| cAMP-dependent protein kinase catalytic subunit PRKX (PRKX, Homo sapiens, UniProt P51817) |  | 100% |
| Serine/threonine-protein kinase PAK 3 (PAK3, Homo sapiens, UniProt O75914) |  | 100% |
